Published values from different studies.
Several values in a cell are separate wells, animals, samples, runs or records.

Structure (SMILES) = COc1ccc(-n2nc(C(C)=O)s/c2=N\N=C(/C)c2ccc(NC(=O)c3ccc(C)cc3)cc2)cc1; target or system = HepG2; setting = 1.25 µM; quantity = viability; result = 13.4%
Structure (SMILES) = Cc1ccc(CNC(=O)Cn2cc(CSc3nc4ccccc4[nH]3)nn2)cc1; target or system = Caco-2; assay = MTT; setting = 500 ppm; quantity = viability; result = 9.13%
Structure (SMILES) = Cc1cccc(-c2[nH]c(CNc3ccccc3F)nc2-c2ccc3ncnn3c2)n1; target or system = MM1.S pomalidomide-resistant; assay = XTT; setting = 1.5 µM; how to read = baseline: untreated; quantity = viability; result = 45%
Structure (SMILES) = COc1ccc(-n2nc(C(C)=O)s/c2=N\N=C(/C)c2ccc(NC(=O)c3ccccc3)cc2)cc1; target or system = MCF7; setting = 2.5 µM; quantity = viability; result = 2.54%
Structure (SMILES) = N[C@H](CCSSCC[C@@H](N)C(=O)O)C(=O)O (racemic); assay = binding, MIDAS equilibrium dialysis LC-MS; system = A2AR-BRIL thermostabilized; setting = concentration not given; how to read = baseline: no-protein control; quantity = log2 fold change; result = -0.0856
Structure (SMILES) = Nc1cccc2c1C(=O)N(C1CCC(=O)NC1=O)C2=O (stereo not shown); target or system = MM1.S; assay = XTT; setting = 0.2 µM; quantity = viability; result = 86% and 61% and 59%
Structure (SMILES) = COc1cc2ncnc(Nc3ccc(Oc4ccccc4)cc3C)c2cc1OC; target or system = MeWo (NF1); assay = resazurin; setting = 0.1 µM, 72 h, added: trametinib 0 nM; quantity = viability; result = 99.7%
Structure (SMILES) = CC1(C)CCC(CN2CCN(c3ccc(C(=O)NS(=O)(=O)c4ccc(NCC5CCOCC5)c([N+](=O)[O-])c4)c(Oc4cnc5[nH]ccc5c4)c3)CC2)=C(c2ccc(Cl)cc2)C1; target or system = mouse BMDM; assay = CellTiter-Glo; setting = concentration not given; quantity = viability; result = 11.9% and 12.8%
Structure (SMILES) = Nc1ncnc2c1ncn2[C@@H]1O[C@H](CO)[C@@H](O)[C@H]1O; target or system = activated human T cells; setting = 100 nM, 72 h; how to read = higher = more viable cells; quantity = viability; result = 81.3 a.u. and 82.9 a.u. and 86 a.u.
Structure (SMILES) = O=C(O)C(O)CO (stereo not shown); assay = binding, MIDAS equilibrium dialysis LC-MS; system = A2AR-BRIL thermostabilized; setting = concentration not given; how to read = baseline: no-protein control; quantity = log2 fold change; result = 0.0331

Repeated from above:
Structure (SMILES) = O=C(O)C(O)CO (stereo not shown); assay = binding, MIDAS equilibrium dialysis LC-MS; system = A2AR-BRIL thermostabilized; setting = concentration not given; how to read = baseline: no-protein control; quantity = log2 fold change; result = 0.0331
